Experimental data pooled from the literature.
± gives the spread as reported.
Target: 5-hydroxytryptamine receptor 2A (HTR2A, Homo sapiens, UniProt P28223)
Sequence of UniProt P28223 (whole entry, looked up): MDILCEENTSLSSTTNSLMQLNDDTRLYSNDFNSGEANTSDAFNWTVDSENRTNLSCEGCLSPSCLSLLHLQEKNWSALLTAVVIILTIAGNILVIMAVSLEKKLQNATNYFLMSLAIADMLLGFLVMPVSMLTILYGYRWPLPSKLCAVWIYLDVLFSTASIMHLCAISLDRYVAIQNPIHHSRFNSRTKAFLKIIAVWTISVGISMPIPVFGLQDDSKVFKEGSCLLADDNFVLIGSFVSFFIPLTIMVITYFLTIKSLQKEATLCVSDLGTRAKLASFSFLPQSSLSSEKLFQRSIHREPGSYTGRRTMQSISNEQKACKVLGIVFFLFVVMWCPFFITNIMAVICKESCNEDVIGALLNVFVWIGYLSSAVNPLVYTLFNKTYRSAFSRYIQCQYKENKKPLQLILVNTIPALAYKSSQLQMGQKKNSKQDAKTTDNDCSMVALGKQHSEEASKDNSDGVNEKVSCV

CCS(=O)(=O)c1nc(S(=O)(=O)c2ccccc2Cl)c(N2CCN(C)C(=O)[C@H]2C)s1
inhibition (10 µM): 24.1%

Cc1ccnc(OC[C@H]2CN(CC(=O)N3CCc4ccccc43)CCO2)c1
inhibition (radioligand binding; concentration not given, with: [3H]ketanserin): -1.1%

CN(C(=O)n1cnc(-c2ccc[n+]([O-])c2)c1)C1CCCCC1
inhibition (receptor binding; 10 µM, subtype 5HT2A): -0.79%

O=C(c1ccc(F)cc1)C1CCN(CCn2c(=O)[nH]c3ccccc3c2=O)CC1
inhibition (10 µM): 99.6 ± 1.4%

OCCCN1CC[C@@H]2C[C@H]1c1cc(-c3ccc(C(F)(F)F)cc3)ccc12
inhibition (radioligand binding, PDSP competition binding; 10 µM): < 50%

Cc1ccnc(C)c1OC[C@H]1CN(CCN2CCc3ccccc32)CCO1
inhibition (radioligand binding; concentration not given, with: [3H]ketanserin): 53.9%

O=C(NO)c1ccc(CN2CCCCc3ccccc32)c(F)c1
inhibition (radioligand binding, radioligand displacement; 10 µM, mean of replicates): 13.5%

C[C@@H]1Cc2ccccc2N1C(=O)NCCCCN(C)[C@@H]1Cc2cccc3[nH]c(=O)n(c23)C1
Hill slope (binding; with: [3H]5-HT): -0.71 ± 0.04

Cc1ncccc1OC[C@H]1CN(CCN2CCc3ccccc32)CCO1
inhibition (radioligand binding; concentration not given, with: [3H]ketanserin): 33.6%

Repeated from above:
Cc1ncccc1OC[C@H]1CN(CCN2CCc3ccccc32)CCO1
inhibition (radioligand binding; concentration not given, with: [3H]ketanserin): 33.6%
